Measurements pooled from the literature.
Each numbered part is a random draw from the data of one study; scales do not carry over between parts. Several values in a cell are separate wells, animals, samples, runs or records.
UniProt P05164, sequence (whole entry, looked up): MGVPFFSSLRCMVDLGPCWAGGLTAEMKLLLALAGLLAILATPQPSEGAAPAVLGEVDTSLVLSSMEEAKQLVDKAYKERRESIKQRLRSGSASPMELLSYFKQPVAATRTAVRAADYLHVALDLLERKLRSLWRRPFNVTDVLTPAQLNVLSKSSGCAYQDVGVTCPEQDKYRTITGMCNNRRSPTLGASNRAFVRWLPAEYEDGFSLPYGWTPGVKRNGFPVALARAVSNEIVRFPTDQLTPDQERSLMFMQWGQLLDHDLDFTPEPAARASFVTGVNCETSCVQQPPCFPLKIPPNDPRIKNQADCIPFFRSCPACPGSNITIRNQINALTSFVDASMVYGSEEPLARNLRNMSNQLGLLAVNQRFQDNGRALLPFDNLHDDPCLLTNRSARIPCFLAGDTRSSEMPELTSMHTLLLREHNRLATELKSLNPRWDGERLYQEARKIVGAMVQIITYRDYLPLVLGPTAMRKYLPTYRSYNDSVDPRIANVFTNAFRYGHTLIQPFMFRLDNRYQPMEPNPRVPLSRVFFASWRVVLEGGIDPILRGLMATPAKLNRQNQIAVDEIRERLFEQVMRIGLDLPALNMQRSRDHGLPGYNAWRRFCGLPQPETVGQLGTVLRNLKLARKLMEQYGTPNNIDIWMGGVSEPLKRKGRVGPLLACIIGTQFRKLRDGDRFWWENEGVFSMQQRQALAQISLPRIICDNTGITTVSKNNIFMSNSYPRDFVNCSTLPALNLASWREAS
UniProt P29376, sequence (whole entry, looked up): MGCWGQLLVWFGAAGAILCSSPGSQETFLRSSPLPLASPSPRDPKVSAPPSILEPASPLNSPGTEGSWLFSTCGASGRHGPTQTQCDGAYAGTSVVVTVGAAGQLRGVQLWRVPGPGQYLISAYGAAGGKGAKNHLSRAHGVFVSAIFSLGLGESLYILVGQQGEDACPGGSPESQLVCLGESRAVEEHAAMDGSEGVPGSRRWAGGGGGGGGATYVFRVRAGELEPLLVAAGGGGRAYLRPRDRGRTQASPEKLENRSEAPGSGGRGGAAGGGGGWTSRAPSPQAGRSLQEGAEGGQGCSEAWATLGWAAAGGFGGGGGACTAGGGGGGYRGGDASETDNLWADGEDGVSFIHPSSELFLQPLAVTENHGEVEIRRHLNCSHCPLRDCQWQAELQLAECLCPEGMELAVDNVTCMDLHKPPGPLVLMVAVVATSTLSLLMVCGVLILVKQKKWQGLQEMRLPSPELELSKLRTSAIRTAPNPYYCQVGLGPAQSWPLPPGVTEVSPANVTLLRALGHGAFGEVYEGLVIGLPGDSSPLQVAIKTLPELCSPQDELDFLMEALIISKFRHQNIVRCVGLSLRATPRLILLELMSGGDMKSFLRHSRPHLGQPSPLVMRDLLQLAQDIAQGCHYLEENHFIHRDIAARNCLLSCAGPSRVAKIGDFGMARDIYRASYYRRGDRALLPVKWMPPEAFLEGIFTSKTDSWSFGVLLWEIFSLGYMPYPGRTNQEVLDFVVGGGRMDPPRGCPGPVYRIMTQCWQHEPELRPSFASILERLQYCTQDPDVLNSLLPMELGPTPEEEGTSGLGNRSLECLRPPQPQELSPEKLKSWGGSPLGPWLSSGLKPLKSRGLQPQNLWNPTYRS
UniProt P27338, sequence (whole entry, looked up): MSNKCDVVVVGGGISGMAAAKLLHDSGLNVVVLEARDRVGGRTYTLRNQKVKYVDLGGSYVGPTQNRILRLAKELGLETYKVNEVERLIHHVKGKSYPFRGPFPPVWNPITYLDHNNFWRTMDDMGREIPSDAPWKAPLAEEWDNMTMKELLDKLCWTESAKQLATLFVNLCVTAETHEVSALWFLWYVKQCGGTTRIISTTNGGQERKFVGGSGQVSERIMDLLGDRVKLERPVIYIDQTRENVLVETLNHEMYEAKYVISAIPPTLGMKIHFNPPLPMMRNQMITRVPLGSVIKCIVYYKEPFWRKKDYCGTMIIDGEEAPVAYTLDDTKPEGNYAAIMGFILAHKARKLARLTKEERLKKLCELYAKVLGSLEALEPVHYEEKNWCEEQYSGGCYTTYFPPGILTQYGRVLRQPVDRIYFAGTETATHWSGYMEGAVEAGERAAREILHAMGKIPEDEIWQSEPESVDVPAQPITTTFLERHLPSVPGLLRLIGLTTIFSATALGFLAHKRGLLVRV

Series 1
SMILES: CCC1(c2cccc(-c3cn(C)nc3C)c2)C2=C(Nc3n[nH]cc31)C(F)C(C)(C)CC2=O (single isomer, unassigned)
Tested at: 1 µM
GSK3B (Homo sapiens, UniProt P49841); binding, competition with immobilised ligand — remaining binding: 1.1%.
For BMX (Homo sapiens, UniProt P51813); binding, competition with immobilised ligand: remaining binding read 100%.
The remaining binding was 100% (NEK10 (Homo sapiens, UniProt Q6ZWH5); kinase binding, KINOMEscan; relative to: DMSO control).
For PRKCE (Homo sapiens, UniProt Q02156); binding, competition with immobilised ligand: remaining binding read 100%.
The remaining binding was 100% (CDK2 (Homo sapiens, UniProt P24941); kinase binding, KINOMEscan; relative to: DMSO control).
STK26 (Homo sapiens, UniProt Q9P289); kinase binding, KINOMEscan; relative to: DMSO control — remaining binding: 100%.
LTK (Homo sapiens, UniProt P29376); binding, competition with immobilised ligand — remaining binding: 100%.
PDGFRA (Homo sapiens, UniProt P16234); kinase binding, KINOMEscan; relative to: DMSO control — remaining binding: 100%.
For FLT3 ITD, human; KINOMEscan: remaining binding read 100%.
The remaining binding was 99% (TYRO3 (Homo sapiens, UniProt Q06418); kinase binding, KINOMEscan; relative to: DMSO control).
It gave 98% for remaining binding (KIT (Homo sapiens, UniProt P10721, V559D/V654A); kinase binding, KINOMEscan; relative to: DMSO control).
It gave 58% for remaining binding (PIK3CA (Homo sapiens, UniProt P42336, I800L); kinase binding, KINOMEscan; relative to: DMSO control).
It gave 100% for remaining binding (VRK2 (Homo sapiens, UniProt Q86Y07); kinase binding, KINOMEscan; relative to: DMSO control).

Series 2
SMILES: COc1cc(-c2nc3ccc(C(=O)NCCCN(C)C)cc3n2C2CCC2)cc(OC)c1OC
Observed: binding
Technique: competition with immobilised ligand
Tested at: 1 µM
The remaining binding was 92% (EPHA8 (Homo sapiens, UniProt P29322)).
For BMP2K (Homo sapiens, UniProt Q9NSY1): remaining binding read 67%.
The remaining binding was 94% (CDC42BPA (Homo sapiens, UniProt Q5VT25)).
CDK17 (Homo sapiens, UniProt Q00537) — remaining binding: 96%.
NEK5 (Homo sapiens, UniProt Q6P3R8) — remaining binding: 99%.
It gave 100% for remaining binding (CSNK1G3 (Homo sapiens, UniProt Q9Y6M4)).
For LTK (Homo sapiens, UniProt P29376): remaining binding read 100%.
The remaining binding was 96% (RIPK1 (Homo sapiens, UniProt Q13546)).
It gave 67% for remaining binding (BTK (Homo sapiens, UniProt Q06187)).
For MET (Homo sapiens, UniProt P08581): remaining binding read 100%.
STK38L (Homo sapiens, UniProt Q9Y2H1) — remaining binding: 96%.
CDK13 (Homo sapiens, UniProt Q14004) — remaining binding: 61%.

Series 3
SMILES: CS(=O)(=O)c1ccc(OC/C(=C/F)CN)cc1.Cl
MAOA: Amine oxidase [flavin-containing] A (MAOA, Homo sapiens, UniProt P21397)
UniProt P21397, sequence (whole entry, looked up): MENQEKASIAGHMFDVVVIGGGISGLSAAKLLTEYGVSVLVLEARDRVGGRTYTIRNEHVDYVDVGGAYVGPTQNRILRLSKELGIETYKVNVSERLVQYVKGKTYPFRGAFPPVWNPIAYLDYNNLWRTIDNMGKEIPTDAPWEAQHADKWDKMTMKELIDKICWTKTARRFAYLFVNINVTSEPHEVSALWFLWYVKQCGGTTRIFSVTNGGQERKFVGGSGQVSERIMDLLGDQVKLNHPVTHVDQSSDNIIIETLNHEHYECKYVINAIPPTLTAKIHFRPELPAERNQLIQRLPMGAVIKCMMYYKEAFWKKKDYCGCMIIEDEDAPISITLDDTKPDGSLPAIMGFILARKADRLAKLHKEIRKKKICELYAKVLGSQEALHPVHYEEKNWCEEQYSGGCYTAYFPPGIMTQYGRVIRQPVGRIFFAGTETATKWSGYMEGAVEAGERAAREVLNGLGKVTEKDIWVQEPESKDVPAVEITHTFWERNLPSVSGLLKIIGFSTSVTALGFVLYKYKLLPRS
Amine oxidase [copper-containing] 3: Amine oxidase [copper-containing] 3 (Mus musculus, UniProt O70423)
UniProt O70423, sequence (whole entry, looked up): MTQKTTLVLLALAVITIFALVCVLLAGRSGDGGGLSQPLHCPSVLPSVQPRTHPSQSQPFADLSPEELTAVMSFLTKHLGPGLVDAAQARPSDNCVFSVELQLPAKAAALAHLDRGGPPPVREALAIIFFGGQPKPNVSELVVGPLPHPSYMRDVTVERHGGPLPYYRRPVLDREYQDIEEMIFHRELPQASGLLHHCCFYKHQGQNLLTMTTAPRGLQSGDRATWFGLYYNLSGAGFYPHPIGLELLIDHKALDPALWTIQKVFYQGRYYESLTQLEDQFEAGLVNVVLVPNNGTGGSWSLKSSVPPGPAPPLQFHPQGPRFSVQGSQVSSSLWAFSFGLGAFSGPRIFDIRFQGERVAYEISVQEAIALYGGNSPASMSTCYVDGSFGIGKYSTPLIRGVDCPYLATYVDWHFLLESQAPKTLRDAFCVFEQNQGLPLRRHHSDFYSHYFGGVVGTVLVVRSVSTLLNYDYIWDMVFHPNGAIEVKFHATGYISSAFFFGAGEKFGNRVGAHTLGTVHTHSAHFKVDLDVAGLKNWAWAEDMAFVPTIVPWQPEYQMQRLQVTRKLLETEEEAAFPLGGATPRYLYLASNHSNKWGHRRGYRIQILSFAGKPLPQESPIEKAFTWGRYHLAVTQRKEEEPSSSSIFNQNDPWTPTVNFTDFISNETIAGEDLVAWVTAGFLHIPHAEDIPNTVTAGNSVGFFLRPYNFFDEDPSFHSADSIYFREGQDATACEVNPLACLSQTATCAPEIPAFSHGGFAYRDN
The inhibition was -14.5% (AOC1 (Homo sapiens, UniProt P19801); enzyme activity, inhibitor; 200 pM).
The inhibition was 3.32% and -4.86% and -0.733% (Myeloperoxidase (MPO, Homo sapiens, UniProt P05164); enzyme activity, inhibitor, fluorescence; 0.3704 µM).
MAOA; enzyme activity, inhibitor; 30 µM — inhibition: 30.7% and 27.6% and 22.5% and 22.2% and 15.9%.
MAOA; enzyme activity, inhibitor; 500 pM — inhibition: 2.13% and -4.66% and -5.53% and -4.93% and 4.14%.
The inhibition was 99% (Amine oxidase [copper-containing] 3; mouse adipose tissue; 0.3333 µM).
The inhibition was -0.785% and -4.11% (MAOB (Homo sapiens, UniProt P27338); enzyme activity, inhibitor; 0.1235 µM).
Amine oxidase [copper-containing] 3; mouse adipose tissue; 0.0005 µM — inhibition: 17.3%.
It gave -3.68% for inhibition (Amine oxidase [copper-containing] 3; mouse adipose tissue; 1.694e-05 µM).

Series 4
Structure (SMILES): C[C@@H]1CN(c2ccc(-c3cc(C(=O)NCCOCCOCCOCCOCCNC(=O)/C=C/c4[nH]cc(C(=O)N[C@@H](CC(N)=O)c5ccc(F)c(Cl)c5)c4-c4ccc(Cl)cc4F)ccc3F)cc2NC(=O)c2c[nH]c(=O)cc2C(F)(F)F)C[C@H](C)N1C
Observed: thermal unfolding
Technique: differential scanning fluorimetry
Tested at: 5.5 µM
Direction: higher = more unfolded
DCAF1: DDB1- and CUL4-associated factor 1 (DCAF1, Homo sapiens, UniProt Q9Y4B6)
UniProt Q9Y4B6, sequence (whole entry, looked up): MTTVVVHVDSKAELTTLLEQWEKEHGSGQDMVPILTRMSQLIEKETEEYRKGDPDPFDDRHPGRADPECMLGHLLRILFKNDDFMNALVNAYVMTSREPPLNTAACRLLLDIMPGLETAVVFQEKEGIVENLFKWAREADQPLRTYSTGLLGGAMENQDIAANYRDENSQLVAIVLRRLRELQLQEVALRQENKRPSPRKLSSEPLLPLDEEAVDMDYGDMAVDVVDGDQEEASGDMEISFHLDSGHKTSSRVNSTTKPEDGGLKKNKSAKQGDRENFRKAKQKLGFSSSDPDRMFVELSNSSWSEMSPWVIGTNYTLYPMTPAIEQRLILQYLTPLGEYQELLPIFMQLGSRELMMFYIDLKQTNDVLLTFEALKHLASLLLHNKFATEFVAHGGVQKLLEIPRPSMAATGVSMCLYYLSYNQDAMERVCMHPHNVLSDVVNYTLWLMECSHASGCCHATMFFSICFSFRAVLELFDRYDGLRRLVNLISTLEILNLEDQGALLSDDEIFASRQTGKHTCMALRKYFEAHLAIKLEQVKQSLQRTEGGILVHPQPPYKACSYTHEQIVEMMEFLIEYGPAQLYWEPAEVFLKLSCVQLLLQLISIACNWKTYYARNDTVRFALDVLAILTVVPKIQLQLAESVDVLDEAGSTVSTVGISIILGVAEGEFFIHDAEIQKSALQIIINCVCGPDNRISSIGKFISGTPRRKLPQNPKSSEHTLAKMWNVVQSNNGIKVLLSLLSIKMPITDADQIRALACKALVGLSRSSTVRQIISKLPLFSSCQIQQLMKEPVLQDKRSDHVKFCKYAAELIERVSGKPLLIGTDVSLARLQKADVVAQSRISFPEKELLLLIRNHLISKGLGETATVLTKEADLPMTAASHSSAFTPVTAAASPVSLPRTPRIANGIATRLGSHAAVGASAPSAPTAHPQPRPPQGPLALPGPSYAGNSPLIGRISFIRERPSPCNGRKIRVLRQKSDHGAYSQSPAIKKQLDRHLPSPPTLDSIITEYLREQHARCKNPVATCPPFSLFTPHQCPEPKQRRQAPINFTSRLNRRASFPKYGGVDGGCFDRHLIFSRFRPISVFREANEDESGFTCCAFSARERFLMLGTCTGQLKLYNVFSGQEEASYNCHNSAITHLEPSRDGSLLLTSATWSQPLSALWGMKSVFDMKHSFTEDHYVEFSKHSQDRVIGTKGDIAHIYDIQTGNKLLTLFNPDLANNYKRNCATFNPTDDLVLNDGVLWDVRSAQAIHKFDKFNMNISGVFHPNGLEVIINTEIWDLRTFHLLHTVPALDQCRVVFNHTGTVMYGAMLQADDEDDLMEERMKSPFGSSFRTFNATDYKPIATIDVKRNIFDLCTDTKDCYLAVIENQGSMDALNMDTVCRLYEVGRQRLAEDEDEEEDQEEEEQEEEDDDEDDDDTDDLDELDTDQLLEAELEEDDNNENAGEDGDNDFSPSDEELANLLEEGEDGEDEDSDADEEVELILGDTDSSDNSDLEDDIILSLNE
It gave 14900 a.u. for “SYPRO Orange fluorescence” (DCAF1; 49.6 °C).
For DCAF1; 67.61 °C: “SYPRO Orange fluorescence” read 58400 a.u.
It gave 59400 a.u. for “SYPRO Orange fluorescence” (DCAF1; 66.01 °C).
The “SYPRO Orange fluorescence” was 34200 a.u. (DCAF1; 90.81 °C).
The “SYPRO Orange fluorescence” was 8980 a.u. (DCAF1; 25.6 °C).
The “SYPRO Orange fluorescence” was 35300 a.u. (DCAF1; 89.81 °C).
It gave 14100 a.u. for “SYPRO Orange fluorescence” (WDR5 (Homo sapiens, UniProt P61964); 65.61 °C).
DCAF1; 37.4 °C — “SYPRO Orange fluorescence”: 10700 a.u.

Some of these lines once more (series 1):
For FLT3 ITD, human; KINOMEscan: remaining binding read 100%.
The remaining binding was 99% (TYRO3 (Homo sapiens, UniProt Q06418); kinase binding, KINOMEscan; relative to: DMSO control).
It gave 98% for remaining binding (KIT (Homo sapiens, UniProt P10721, V559D/V654A); kinase binding, KINOMEscan; relative to: DMSO control).
It gave 58% for remaining binding (PIK3CA (Homo sapiens, UniProt P42336, I800L); kinase binding, KINOMEscan; relative to: DMSO control).
